Measurements pooled from the literature.
Numbered parts are unrelated; each lists some results of a single study.

Series 1
Target: Prothrombin, mature alpha-thrombin (F2, Homo sapiens, UniProt P00734)
Technique: aptamer microarray, sandwich
Form: DNA with 2'F-ANA
Matrix: in vitro
Tested at: 200 nM
Notes: whole 15-mer aptamer, many near background
With: Cy3 exosite-II aptamer, 400 nM
Reading: higher = stronger binding
Endpoint: mean fluorescence intensity
Strand: GGTTGGTGTGGTTGG
2'F-ANA at 1 3 8 10 14: 56.8 a.u.
2'F-ANA at 3 4 7 8 10 13 14 15: 254 a.u.
2'F-ANA at 3 4 7 14: 431 a.u.
2'F-ANA at 1 2 4 6 7 10 13 14: 49.8 a.u.
2'F-ANA at 1 2 3 4 6 7 8 9 10 15: 61.3 a.u.
2'F-ANA at 1 2 3 5 6 8 9 10 13 14: 48.8 a.u.
2'F-ANA at 1 4 5 6 8 10 12 13: 108 a.u.
2'F-ANA at 1 2 3 7 10 11 12 13 14 15: 70 a.u.
2'F-ANA at 3 6 7 9 10 11 12 13 14 15: 338 a.u.
2'F-ANA at 3 6 8 12 14: 760 a.u.
2'F-ANA at 2 4 5 6 7 8 10 11 12 13 14: 47.9 a.u.
2'F-ANA at 2 4 6 7 8 9 11 12 13: 309 a.u.
2'F-ANA at 1 5 6 7 12 13 15: 72.6 a.u.
2'F-ANA at 1 3 6 11 12 13 14: 97.5 a.u.
2'F-ANA at 6 7 9 11 12 13 14: 168 a.u.
2'F-ANA at 1 2 4 8 13 14: 115 a.u.
2'F-ANA at 1 2 3 10 11: 75.4 a.u.
2'F-ANA at 1 5 6 8 10 11 13: 49.9 a.u.
2'F-ANA at 11 12 13: 659 a.u.
2'F-ANA at 4 5 6 7 8 10 11 14: 98.2 a.u.
2'F-ANA at 2 4 5 9: 72.7 a.u.
2'F-ANA at 1 4 7 10 13 15: 48.7 a.u.
2'F-ANA at 2 3 5 7 8 10 12 14 15: 94.3 a.u.
2'F-ANA at 1 2 3 5 8 12: 127 a.u.

Series 2
Target: Interferon regulatory factor 7, full length, phosphomimetic (IRF7, Homo sapiens, UniProt Q92985, residues 1-503, S101K/S471D/S472D/S475D/S476D/S477D/S483D/S484D/S487D)
Technique: protein-binding microarray
Form: double-stranded DNA, one strand shown
Matrix: in vitro
Tested at: 250 nM
Notes: 60-bp whole probe
With: salmon DNA 0.4 mg/ml
Baseline: random background probes
Reading: higher = stronger binding
Endpoint: log fluorescence
Constant ends, left off below: GCCTAGCAC … GTCTTGATTCGCTTGACGCTGCTG
Construct (chain): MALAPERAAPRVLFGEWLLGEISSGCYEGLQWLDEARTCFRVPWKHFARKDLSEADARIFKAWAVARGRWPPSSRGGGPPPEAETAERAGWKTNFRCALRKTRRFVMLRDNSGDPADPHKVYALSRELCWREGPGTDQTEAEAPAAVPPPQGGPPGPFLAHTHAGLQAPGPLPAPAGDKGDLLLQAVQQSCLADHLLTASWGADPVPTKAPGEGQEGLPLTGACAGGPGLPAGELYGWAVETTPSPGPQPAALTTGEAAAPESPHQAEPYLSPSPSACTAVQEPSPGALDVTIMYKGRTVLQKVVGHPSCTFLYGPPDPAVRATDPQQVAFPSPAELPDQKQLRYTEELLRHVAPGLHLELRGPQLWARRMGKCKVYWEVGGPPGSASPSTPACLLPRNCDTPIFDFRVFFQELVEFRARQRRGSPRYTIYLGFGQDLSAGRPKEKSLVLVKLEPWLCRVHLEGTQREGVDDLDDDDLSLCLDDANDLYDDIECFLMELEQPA
TTAGGTTCCGGGACTGGGTTAGTGCTA: 0.712 z-score
GACGGACTGGGTATCGGGCCGTGCTAG: -0.434 z-score
TGAAATTTTAGTAACACAGAGTGCTAG: -0.224 z-score
GACGGTAGCCTACTGCTGACGTGCTAG: -0.893 z-score
CACGATCTCAGTATCGAGACGTGCTAG: 0.391 z-score
TATTTTCCTTTAAACTTTTAGTGCTAG: 3.97 z-score
TCAAGCCTCCATTTTTAACTGTGCTAG: -0.296 z-score
GACGAACTGGGGTATCGCGACGTGCTA: -0.604 z-score
GACGGTCTAGGTCTCGGGACGTGCTAG: -0.147 z-score
GACGATATCAGTCACGAGACGTGCTAG: 0.0517 z-score
TCCTGTATGGATGTGTTTTAGTGCTAG: -0.11 z-score
TTAGGGTTCGGTATCGGTTAGTGCTAG: 2.55 z-score
TTAGGTTCCCTTTTACTTTAGTGCTAG: 4.37 z-score
GACGAACTGGAGTATCGAGACGTGCTA: -0.467 z-score
TCATTTTTTTCTAACTAACTGTGCTAG: 0.906 z-score
AGATTTTTCTCAACCGTTGTGTGCTAG: 0.189 z-score
TCATGTCTGGAGTCTCTGACTGTGCTA: -0.313 z-score
TTAGATTCCAGTTACGATTAGTGCTAG: 4.22 z-score
TTAGATTTCGGGACTGGATTTGTGCTA: 0.315 z-score
TTAGGACTCGGTTTCGGTTAGTGCTAG: 11.2 z-score
TTAGAATTGGGGTTTCGATTAGTGCTA: 6.16 z-score

Series 3
Target: RNA binding protein fox-1 homolog 2, RRM domain, GST-SBP tag (RBFOX2, Homo sapiens, UniProt O43251-10, residues 100-194)
Technique: RNA Bind-n-Seq
Form: RNA
Matrix: in vitro
Tested at: 365 nM
Notes: natural RNA segment, single round, ends assumed
Baseline: no-protein control
Reading: higher = stronger binding
Endpoint: RBNS enrichment (R)
Target sequence (chain): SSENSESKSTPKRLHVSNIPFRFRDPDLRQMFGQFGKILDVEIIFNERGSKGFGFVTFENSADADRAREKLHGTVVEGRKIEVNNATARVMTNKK
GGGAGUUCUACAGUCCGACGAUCACACCCCUGAGCAGAGUUAGGGAGGAAUUCUACUUCCCAUAAAAGGACCUCUCCUGAGAGGCAAAACCUGUUGCCUCCACCACGGCUUCCCUCUUGGCUCAUUCCAAGCUUGGAAUUCUCGGGUGCCAA: 0.302
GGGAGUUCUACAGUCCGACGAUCUUUAUGAUCAGGGUGGAAUGUGCCUCCUGAUGUAUGAGCCUCAUUAAUUUCCAUUUUAAGGUGGUGUCUGUGCAGCCGUGUCCCUGGUUCUGGCUGUUUUCUGUCUGGUGUGGAAUUCUCGGGUGCCAA: 0.443
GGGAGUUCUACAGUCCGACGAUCCCUGAAGAAGGGUGUGAAGGCUGAACAAUCAUGGAUUUUUCUGAUCAAUUGUGCUUUAGGAAAUUAUUGACAGUUUUGCACAGGUUCUUGAAAACGUUAUUUAUAAUGAAUGGAAUUCUCGGGUGCCAA: 0.392
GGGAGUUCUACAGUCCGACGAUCUUUCAAGCAAGAAGCGGGCGGAGUAAACGCGUGUGACCACUUAAAGCUGCUUGUUAACAUGGAAGACUUCUCCACUCUCCCUUAGUGAGAACAAAUACACACUUGACAUGUGGAAUUCUCGGGUGCCAA: 0.416
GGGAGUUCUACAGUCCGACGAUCCCAGGUUAAACAUUUGGAAUCUUAUAAUGUUACUUGCUUUUUGAUAGAUAAUAGUGAAAUAAAUUCAGCUUUGCCAUUGCUGGAGUUGUCAAAAUUCCACAGUAAUUAAAUGGAAUUCUCGGGUGCCAA: 0.739
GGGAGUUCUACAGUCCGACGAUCAUUUAGGGUGGACAAAUGCAUUACUGUUUUCAAACUGCUCACAUUUAUUCAGUAUUUCUCCAAGUUGCUAUCUACUCAGCCUUAUGAAUGCCCCUCGCUUUUCUAAGGCCUGGAAUUCUCGGGUGCCAA: 0.477
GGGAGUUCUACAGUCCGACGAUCACUGUCAGGACAGAUUGAGUUAACCCCUCAAGCCAAGUCCCGGGUGUCAGGAACAGUUGUCCAUGCUCAGAGCCCUCAAGCCAUCCUUGGCCACUCUCACUCCAGUGCCCUGGAAUUCUCGGGUGCCAA: 0.233
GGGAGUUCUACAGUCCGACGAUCAAAAAGAGACUGCCUACAAAUUGUUCCUCUAGAUCAUCGGGGCAGAGGUGCUGUCUAUAAAGCCCCCCCGGGGGCUAACCUUUGCUCAGAUUCUUAAAAAGCAGUGGUUAUGGAAUUCUCGGGUGCCAA: 0.32
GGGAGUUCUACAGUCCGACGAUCGACACACCAGAAGAGGGCAUCAGAUCCCAUUACAGAUGGUUGUGAGCCACCAUGUGGUUGCUUUAAGAUUUAUGUAUAUGAGUACACUGUGGCUGUCUCAGACACACCAGUGGAAUUCUCGGGUGCCAA: 0.258
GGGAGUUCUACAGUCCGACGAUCAGGACUAACCAGGCAGAAGCCAUUCACAGGACAGGCUCUGACGGGCUGUCACUGGCUGCUCGAGUCUCCAGCGUAAGCGCUUCACUUUGACUUAGGGUCAUAGUACGAGGUGGAAUUCUCGGGUGCCAA: 0.314
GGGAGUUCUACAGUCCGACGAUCGCAAGAGAUAAAAACCAACAAAACCUAACCUGGUGACCACAUGUCUGUGACUCCAUGUACUCAUCCCAAGGUUGUAUCUGGAGCCUGUGGGCUGGCUAGAUGAUAUAGGUUGGAAUUCUCGGGUGCCAA: 1.39
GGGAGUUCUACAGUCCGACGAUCUGUAAAUAGACAAAAGGAAACAUUUGCCAAAAGCGGCAGAUCUUUACUGAAAGAGAGAGCAGCUGUUAUGCAACAUAUAGAAAAAUGUAUAGAGGUUUGGACAGACCCGGUGGAAUUCUCGGGUGCCAA: 0.65

Series 4
Target: Ras GTPase-activating protein-binding protein 1, RRM domain (G3BP1, Homo sapiens, UniProt Q13283)
UniProt Q13283, sequence (whole entry, looked up): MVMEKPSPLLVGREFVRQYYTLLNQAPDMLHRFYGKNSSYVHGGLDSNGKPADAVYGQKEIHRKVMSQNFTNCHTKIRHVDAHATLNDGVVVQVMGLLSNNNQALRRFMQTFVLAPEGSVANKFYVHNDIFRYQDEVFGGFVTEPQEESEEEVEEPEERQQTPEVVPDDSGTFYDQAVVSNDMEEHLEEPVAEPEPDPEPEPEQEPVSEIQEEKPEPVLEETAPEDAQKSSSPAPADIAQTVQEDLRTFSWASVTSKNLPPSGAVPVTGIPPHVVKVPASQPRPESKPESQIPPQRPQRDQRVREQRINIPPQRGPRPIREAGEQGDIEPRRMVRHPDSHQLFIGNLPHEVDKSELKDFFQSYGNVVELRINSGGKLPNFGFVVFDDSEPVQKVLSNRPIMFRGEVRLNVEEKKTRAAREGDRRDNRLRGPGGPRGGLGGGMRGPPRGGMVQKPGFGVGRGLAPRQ
Technique: RNA Bind-n-Seq
Form: RNA
Matrix: in vitro
Tested at: 1 µM
Notes: whole 134-nt RNA, ends assumed
With: 150 mM KCl
Baseline: input library
Reading: higher = stronger binding
Endpoint: log2 enrichment
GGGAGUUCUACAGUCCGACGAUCAGUCCUGUGCUACACAUCGUAUGUACCGAAUCGGGGUUUUGGGGUUUUGGGUUUUGGGAAAGUAUUAUGUUACGCCGUUCGGAUCUGCACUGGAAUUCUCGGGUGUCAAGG: 0.102
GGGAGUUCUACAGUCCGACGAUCGUCCUGUGCUACACAUCGUAUGUACCGAAUCGGAAAAAGGAAAAAAAGGAAAAAAAGGAAAGUAUUAUGUUACGCCGUUCGGAUCUGCACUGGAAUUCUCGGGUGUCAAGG: -0.0457
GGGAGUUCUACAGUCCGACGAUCCUCAAGUCCUGUGCUACACAUCGUAUGUACCGAAUCGGAAAAAAAGGAGGUGGAAAGUAUUAUGUUACGCCGUUCGGAUCUGCACUUCCAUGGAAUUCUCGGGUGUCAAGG: -0.196
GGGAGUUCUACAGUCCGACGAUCUAACUUUAGAGGAGGAUCUGAUGGAUAUGGCAGUGGACGUGGAUUUGGGGAUGGCUAUAAUGGGUAUGGAGGAGGACCUGGUGGUGGCAAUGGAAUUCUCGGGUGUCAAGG: -0.488
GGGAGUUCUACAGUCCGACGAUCCUCAAGUCCUGUGCUACACAUCGUAUGUACCGAAUCGGUUUUUUUGGUGGAGGAAAGUAUUAUGUUACGCCGUUCGGAUCUGCACUUCCAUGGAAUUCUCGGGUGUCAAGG: -0.27
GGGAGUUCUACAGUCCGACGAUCGUCCUGUGCUACACAUCGUAUGUACCGAAUCAAAUUUUUAAACCCCCAAACCCCCAAAAAAGUAUUAUGUUACGCCGUUCGGAUCUGCACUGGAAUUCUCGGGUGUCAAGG: -0.759
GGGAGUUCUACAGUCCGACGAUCCAAGUCCUGUGCUACACAUCGUAUGUACCGAAUCGGGGAAAGGAAAGGGGAAAGGGAAAGUAUUAUGUUACGCCGUUCGGAUCUGCACUUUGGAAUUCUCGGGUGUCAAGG: 0.0867
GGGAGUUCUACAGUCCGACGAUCCCUGUGCUACACAUCGUAUGUACCGAAUCGGGAAAAAAAGGGUUUUUGGGAAAAAAAGGGAAAGUAUUAUGUUACGCCGUUCGGAUCUGCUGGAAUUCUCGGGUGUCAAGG: -0.112
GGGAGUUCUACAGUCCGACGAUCGUCCUGUGCUACACAUCGUAUGUACCGAAUCGGAAAAAAAGGUUUUUUUGGUUUUUGGAAAGUAUUAUGUUACGCCGUUCGGAUCUGCACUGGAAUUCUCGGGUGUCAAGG: -0.426
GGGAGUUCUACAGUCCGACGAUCUCCUCAAGUCCUGUGCUACACAUCGUAUGUACCGAAUCGGGGCGGCGGCGGGAAAGUAUUAUGUUACGCCGUUCGGAUCUGCACUUCCAGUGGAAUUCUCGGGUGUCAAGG: -0.197
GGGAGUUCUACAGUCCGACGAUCACCAUGCAGGUGGGCAUCUUUGGGAAGUGGGGCAAGGGGGGGAUAGGGAGGGGGGUAACACUUUUGGAACAGGUGGUCCCAGGUCGUUUCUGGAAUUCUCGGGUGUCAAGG: 1.09
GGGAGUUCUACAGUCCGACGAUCUCCUGUGCUACACAUCGUAUGUACCGAAUCGGAAAAAAAGGAAAAAAAGGGAAAAAAAGGAAAGUAUUAUGUUACGCCGUUCGGAUCUGCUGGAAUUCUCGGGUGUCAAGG: 0.188
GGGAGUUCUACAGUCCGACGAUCUGGCCCUGGUGGCAUGCGGGGAGGAAGAGGUGGCCUCAUGGAUCGUGGUGGUCCCGGUGGAAUGUUCAGAGGUGGGCGUGGUGGAGACAGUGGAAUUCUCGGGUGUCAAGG: 2.05
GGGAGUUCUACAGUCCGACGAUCGGGGACGGCAAAACAGAACAGAAAGGCGGAGAUAAAAAGAGGGGUGUUAAAAGACCACGAGAAGAUCAUGGCCGUGGAUAUUUUGAGUACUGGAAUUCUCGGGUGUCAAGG: 0.0964
